Published values from different studies.
Each line is one published result; not all experiments were run side by side. ± marks the error that the study gave.
Target: Tyrosine-protein kinase Fgr (FGR, Homo sapiens, UniProt P09769)
Chain of UniProt P09769 (whole entry, looked up): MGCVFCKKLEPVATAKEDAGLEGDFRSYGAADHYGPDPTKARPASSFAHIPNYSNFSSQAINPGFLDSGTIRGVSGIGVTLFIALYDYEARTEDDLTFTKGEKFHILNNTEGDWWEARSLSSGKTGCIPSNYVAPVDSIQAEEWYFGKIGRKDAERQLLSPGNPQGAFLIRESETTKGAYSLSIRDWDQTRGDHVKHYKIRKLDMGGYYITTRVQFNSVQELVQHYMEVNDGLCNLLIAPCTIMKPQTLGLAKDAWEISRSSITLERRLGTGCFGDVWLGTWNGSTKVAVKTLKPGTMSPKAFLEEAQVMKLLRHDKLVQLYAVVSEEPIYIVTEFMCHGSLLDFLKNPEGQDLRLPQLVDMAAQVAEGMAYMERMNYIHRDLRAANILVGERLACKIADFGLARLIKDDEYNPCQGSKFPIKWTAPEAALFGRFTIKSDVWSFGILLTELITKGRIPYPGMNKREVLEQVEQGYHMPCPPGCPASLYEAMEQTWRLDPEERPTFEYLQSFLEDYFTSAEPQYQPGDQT

| SMILES | assay | setting | how to read | measurement | value |
| --- | --- | --- | --- | --- | --- |
| CC#CC(=O)N1CCC[C@H]1c1nc(-c2ccc(C(=O)Nc3ccccn3)cc2)c2c(N)nccn12 | kinase activity, inhibitor, HotSpot radiometric | 100 nM, together with: ATP 10 µM |  | remaining activity | 99 ± 2.5% |
| C#Cc1cc(-c2cc(Nc3nc(N[C@@H](C)c4ccc(F)cn4)ncc3Cl)n[nH]2)ccc1C=O | enzyme activity, inhibitor | 0.2 µM |  | inhibition | 95% |
| COc1ccc(F)cc1C(=O)NCc1ccc(-c2nn([C@@H](C)C(F)(F)F)c(N)c2C(N)=O)cc1 | kinase activity, inhibitor, HotSpot radiometric | 1000 nM, together with: ATP at Km |  | remaining activity | 67.1 ± 0.5% |
| O=C(NC1CCC1)c1ccc2nc(-c3cccc(NS(=O)(=O)NCCN4CCCCC4)c3)cn2c1 | enzyme activity | 10 µM |  | remaining activity | 87% |
| C=CC(=O)N1CCC(C(=O)NCC(=O)N2CCN(c3nc(-c4cnc(N)nc4C(F)F)nc(N4CCOCC4)n3)CC2)CC1 | KINOMEscan | 1 µM |  | remaining binding | 97% |
| C=CC(=O)N1CCC([C@@H]2CCNc3c(C(N)=O)c(-c4ccc(Oc5ccccc5)cc4)nn32)CC1 | kinase activity, inhibitor, HotSpot radiometric | 100 nM, together with: ATP 10 µM |  | remaining activity | 64.2 ± 0.3% |
| [2H]c1cc(C)c(NC(=O)c2cnc(Nc3cc(N4CCC(O)CC4)nc(C)n3)s2)c(Cl)c1 |  | 0.001 µM |  | inhibition | > 50% |
| C=CC(=O)N1CCC(COCC(=O)N2CCN(c3nc(-c4cnc(N)nc4C(F)F)nc(N4CCOC[C@@H]4C)n3)CC2)CC1 | KINOMEscan | 1 µM |  | remaining binding | 100% |
| Cc1cc(Nc2cc(N3CCN(C)CC3)nc(Sc3ccc(NC(=O)C4CC4)cc3)n2)[nH]n1 | kinase activity, KinaseProfiler | 0.03 µM, species human | relative to: control | remaining activity | 86% |
| [2H]c1cc(C)c(NC(=O)c2cnc(Nc3cc(N4CCCCC4)nc(C)n3)s2)c(Cl)c1 |  | 0.01 µM |  | inhibition | > 90% |

Repeated from above:
| SMILES | assay | setting | how to read | measurement | value |
| --- | --- | --- | --- | --- | --- |
| C=CC(=O)N1CCC([C@@H]2CCNc3c(C(N)=O)c(-c4ccc(Oc5ccccc5)cc4)nn32)CC1 | kinase activity, inhibitor, HotSpot radiometric | 100 nM, together with: ATP 10 µM |  | remaining activity | 64.2 ± 0.3% |
